Measured values collected from several papers.
A part holds a random share of what one study measured. Several values in a cell are separate wells, animals, samples, runs or records.
UniProt P42336, sequence (whole entry, unmodified, looked up): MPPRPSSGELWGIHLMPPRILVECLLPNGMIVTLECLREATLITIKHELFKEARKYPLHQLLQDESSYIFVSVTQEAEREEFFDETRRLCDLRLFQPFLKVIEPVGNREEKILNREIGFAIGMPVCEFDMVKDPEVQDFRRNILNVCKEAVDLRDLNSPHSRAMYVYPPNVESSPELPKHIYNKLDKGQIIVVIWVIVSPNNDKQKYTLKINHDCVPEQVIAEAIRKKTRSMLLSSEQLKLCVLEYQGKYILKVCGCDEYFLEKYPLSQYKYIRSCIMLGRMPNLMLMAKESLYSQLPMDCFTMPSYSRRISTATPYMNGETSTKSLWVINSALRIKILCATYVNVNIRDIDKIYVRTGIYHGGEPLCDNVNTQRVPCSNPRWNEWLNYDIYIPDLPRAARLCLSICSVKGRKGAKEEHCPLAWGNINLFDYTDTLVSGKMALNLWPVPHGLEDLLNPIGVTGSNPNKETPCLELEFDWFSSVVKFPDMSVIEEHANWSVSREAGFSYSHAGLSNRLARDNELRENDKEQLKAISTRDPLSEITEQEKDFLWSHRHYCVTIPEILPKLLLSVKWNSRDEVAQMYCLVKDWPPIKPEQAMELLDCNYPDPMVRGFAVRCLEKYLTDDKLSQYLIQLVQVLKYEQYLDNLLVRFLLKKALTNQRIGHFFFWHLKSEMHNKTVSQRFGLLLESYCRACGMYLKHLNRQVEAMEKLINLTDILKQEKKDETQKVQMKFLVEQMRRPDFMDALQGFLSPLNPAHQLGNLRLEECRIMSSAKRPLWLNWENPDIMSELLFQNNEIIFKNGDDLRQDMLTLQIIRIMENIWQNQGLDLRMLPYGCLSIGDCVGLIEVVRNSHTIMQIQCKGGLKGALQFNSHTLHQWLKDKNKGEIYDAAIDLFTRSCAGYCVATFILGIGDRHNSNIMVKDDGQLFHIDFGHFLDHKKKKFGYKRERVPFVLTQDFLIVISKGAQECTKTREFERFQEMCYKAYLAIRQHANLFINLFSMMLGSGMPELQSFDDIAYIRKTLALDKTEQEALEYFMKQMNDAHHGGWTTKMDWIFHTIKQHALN
UniProt P00519, sequence (whole entry, unmodified, looked up): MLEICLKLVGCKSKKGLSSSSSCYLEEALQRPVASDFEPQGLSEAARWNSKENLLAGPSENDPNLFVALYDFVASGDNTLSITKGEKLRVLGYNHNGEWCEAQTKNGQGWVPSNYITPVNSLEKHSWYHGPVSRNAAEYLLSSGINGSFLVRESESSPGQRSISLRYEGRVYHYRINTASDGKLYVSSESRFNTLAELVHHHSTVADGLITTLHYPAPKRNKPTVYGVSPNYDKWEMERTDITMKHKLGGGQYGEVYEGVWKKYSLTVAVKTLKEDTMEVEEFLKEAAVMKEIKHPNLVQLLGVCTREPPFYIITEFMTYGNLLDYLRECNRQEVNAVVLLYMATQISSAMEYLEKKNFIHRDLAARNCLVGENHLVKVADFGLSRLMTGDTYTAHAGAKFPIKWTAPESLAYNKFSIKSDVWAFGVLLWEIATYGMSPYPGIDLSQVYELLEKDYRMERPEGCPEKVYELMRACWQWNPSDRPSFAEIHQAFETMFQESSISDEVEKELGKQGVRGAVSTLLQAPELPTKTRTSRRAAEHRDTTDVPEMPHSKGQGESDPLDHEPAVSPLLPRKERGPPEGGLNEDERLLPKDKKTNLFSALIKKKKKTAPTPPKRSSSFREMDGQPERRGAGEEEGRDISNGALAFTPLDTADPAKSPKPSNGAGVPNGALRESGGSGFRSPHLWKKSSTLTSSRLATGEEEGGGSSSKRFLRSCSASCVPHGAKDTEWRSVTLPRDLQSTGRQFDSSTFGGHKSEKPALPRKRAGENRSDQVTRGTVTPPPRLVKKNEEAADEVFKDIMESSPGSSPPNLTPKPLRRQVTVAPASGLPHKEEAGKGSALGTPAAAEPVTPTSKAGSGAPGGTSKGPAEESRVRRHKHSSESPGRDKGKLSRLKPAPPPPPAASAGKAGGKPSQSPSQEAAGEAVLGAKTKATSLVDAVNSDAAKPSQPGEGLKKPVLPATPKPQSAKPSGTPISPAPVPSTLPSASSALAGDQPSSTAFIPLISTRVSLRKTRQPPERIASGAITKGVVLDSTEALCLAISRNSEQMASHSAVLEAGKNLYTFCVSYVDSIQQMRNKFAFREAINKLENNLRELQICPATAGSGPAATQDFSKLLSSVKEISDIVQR
UniProt Q13523, sequence (whole entry, looked up): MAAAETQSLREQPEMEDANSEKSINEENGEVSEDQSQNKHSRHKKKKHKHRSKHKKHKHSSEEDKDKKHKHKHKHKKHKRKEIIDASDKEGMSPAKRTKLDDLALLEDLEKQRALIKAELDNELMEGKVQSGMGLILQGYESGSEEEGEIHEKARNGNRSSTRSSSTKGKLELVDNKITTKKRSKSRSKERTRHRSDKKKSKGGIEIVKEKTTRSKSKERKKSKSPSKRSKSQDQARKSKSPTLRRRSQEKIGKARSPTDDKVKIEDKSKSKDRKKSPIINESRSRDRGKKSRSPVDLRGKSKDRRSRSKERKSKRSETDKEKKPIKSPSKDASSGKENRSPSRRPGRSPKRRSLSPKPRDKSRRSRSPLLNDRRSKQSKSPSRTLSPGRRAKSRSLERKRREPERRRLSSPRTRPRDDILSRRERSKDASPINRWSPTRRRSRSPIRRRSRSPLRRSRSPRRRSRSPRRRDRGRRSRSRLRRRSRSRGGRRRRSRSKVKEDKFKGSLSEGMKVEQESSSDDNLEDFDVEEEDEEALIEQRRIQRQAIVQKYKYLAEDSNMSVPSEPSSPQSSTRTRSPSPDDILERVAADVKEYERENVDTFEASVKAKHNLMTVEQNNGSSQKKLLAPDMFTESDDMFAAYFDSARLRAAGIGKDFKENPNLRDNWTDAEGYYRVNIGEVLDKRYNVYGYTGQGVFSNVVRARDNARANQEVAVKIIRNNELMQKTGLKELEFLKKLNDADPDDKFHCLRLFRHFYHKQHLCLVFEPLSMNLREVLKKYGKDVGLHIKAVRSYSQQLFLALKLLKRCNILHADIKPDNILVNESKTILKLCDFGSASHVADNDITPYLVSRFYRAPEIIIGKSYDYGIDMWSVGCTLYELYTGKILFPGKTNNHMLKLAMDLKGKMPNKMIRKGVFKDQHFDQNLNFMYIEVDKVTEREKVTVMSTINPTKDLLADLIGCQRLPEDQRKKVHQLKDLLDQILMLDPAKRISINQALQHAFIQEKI
UniProt P22455, sequence (whole entry, looked up): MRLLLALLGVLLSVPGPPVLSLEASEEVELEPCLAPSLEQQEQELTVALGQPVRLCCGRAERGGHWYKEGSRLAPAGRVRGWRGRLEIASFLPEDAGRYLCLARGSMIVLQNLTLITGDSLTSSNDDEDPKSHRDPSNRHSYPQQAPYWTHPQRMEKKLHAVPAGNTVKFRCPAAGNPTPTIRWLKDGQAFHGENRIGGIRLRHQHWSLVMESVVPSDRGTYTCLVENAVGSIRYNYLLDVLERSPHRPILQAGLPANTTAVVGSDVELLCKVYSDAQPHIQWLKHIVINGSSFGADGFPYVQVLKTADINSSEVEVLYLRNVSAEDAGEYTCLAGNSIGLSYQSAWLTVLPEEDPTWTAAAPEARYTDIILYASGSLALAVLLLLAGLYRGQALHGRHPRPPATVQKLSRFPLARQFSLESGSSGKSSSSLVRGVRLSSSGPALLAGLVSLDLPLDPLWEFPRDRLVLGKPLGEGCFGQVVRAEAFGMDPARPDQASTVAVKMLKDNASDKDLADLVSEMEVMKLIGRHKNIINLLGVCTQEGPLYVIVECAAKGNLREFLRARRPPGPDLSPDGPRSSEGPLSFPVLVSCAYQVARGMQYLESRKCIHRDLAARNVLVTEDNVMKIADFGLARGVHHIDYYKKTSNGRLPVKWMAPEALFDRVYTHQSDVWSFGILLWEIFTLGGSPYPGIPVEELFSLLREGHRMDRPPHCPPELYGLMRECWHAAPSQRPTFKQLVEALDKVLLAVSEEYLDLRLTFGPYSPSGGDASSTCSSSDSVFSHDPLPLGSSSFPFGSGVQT
UniProt Q16816, sequence (whole entry, looked up): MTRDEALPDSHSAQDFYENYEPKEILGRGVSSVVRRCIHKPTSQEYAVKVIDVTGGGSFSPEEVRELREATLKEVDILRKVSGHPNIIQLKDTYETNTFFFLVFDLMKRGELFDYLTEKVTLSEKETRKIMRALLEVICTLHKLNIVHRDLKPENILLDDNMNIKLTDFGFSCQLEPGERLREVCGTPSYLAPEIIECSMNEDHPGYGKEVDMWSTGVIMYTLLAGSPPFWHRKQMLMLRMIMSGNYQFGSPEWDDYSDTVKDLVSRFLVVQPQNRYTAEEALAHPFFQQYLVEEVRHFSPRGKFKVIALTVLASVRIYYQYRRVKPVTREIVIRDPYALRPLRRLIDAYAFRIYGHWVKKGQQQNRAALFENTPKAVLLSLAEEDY
UniProt Q8NE63, sequence (whole entry, looked up): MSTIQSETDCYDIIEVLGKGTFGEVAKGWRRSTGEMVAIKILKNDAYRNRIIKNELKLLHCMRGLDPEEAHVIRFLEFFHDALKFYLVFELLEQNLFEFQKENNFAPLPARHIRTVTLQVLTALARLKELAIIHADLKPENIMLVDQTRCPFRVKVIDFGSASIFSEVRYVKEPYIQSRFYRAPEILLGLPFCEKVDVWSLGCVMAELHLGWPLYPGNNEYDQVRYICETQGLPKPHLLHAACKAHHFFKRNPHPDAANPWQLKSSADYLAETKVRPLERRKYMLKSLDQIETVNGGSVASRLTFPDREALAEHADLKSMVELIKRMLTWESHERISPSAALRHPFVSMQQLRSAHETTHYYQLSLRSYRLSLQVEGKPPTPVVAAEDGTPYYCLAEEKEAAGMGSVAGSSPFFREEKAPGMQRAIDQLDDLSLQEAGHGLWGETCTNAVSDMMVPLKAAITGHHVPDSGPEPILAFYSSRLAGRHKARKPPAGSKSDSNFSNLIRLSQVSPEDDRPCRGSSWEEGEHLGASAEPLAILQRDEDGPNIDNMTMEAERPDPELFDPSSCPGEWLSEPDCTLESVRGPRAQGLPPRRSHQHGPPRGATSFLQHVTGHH

Series 1 — tested at: 1 µM
SMILES: Cc1ccc(NC(=O)c2ccnc(C(F)(F)F)c2)cc1-c1cc(OCCO)nc(N2CCOCC2)c1
target	observed	technique	remaining binding [%]
Fibroblast growth factor receptor 4 (FGFR4, Homo sapiens, UniProt P22455)	binding	–	100
Tyrosine-protein kinase ABL1 (ABL1, Homo sapiens, UniProt P00519, F317I)	–	–	83
Death-associated protein kinase 3 (DAPK3, Homo sapiens, UniProt O43293)	binding	–	100
Homeodomain-interacting protein kinase 4 (HIPK4, Homo sapiens, UniProt Q8NE63)	binding	competition with immobilised ligand	98
MAP/microtubule affinity-regulating kinase 4 (MARK4, Homo sapiens, UniProt Q96L34)	binding	–	100
Fibroblast growth factor receptor 1 (FGFR1, Homo sapiens, UniProt P11362)	binding	competition with immobilised ligand	100
Phosphatidylinositol 4,5-bisphosphate 3-kinase catalytic subunit alpha isoform (PIK3CA, Homo sapiens, UniProt P42336, E542K)	binding	–	90
Phosphorylase b kinase gamma catalytic chain, skeletal muscle/heart isoform (PHKG1, Homo sapiens, UniProt Q16816)	binding	–	100
Dual specificity protein kinase CLK3 (CLK3, Homo sapiens, UniProt P49761)	binding	–	100
Serine/threonine-protein kinase PLK2 (PLK2, Homo sapiens, UniProt Q9NYY3)	binding	–	78

Series 2 — host: human; sample: microsomes or S9; tested at: 2 µM; time: 0.5 h
SMILES	remaining compound [%]
CCN1C(=O)CCN(S(=O)(=O)c2cn(C)cn2)CC12CCOCC2	> 100
COc1cccc(-c2nc3cc(Cl)ccc3c3ccnn23)c1Cl	49.9
Cc1nn(C(C)C(=O)N(C)Cc2cnn(C)c2)cc1Br (stereo not shown)	82.9
CCOC(=O)Cn1c(=N)sc2cc3c(cc21)OCCO3	13.1
COc1nn(C)c(=O)n1-c1ccccc1NC(=O)c1ccc(Cl)cc1Cl	86.8
CCS(=O)(=O)c1ccc(Cc2ccc(S(=O)(=O)CC)cc2)cc1	89.5
c1ccc2c(c1)CC(N1CCCCC1)c1ccccc1N2 (stereo not shown)	58.8
COc1ccccc1N1CCN(/N=C\C(Cl)=C\c2ccccc2)CC1	85.8
Cn1c(=O)c2sc3c(c2n(CC(N)=O)c1=O)CCCC3	49.5

Series 3 — tested at: 1 µM
Compound: CN(C)C(=O)Cn1cc(-c2nc([C@@](C)(c3ccc(-c4cnc(N)nc4)cc3)C3CC3)no2)cn1
target	observed	technique	remaining binding [%]
Protein-tyrosine kinase 6 (PTK6, Homo sapiens, UniProt Q13882)	cell-free assay	competition with immobilised ligand	100
Epidermal growth factor receptor (EGFR, Homo sapiens, UniProt P00533, G719C)	cell-free assay	competition with immobilised ligand	85
Receptor-interacting serine/threonine-protein kinase 2 (RIPK2, Homo sapiens, UniProt O43353)	cell-free assay	competition with immobilised ligand	87
Insulin-like growth factor 1 receptor (IGF1R, Homo sapiens, UniProt P08069)	cell-free assay	competition with immobilised ligand	100
Receptor-type tyrosine-protein kinase FLT3 (FLT3, Homo sapiens, UniProt P36888, N841I)	cell-free assay	competition with immobilised ligand	83
LIM domain kinase 1 (LIMK1, Homo sapiens, UniProt P53667)	cell-free assay	competition with immobilised ligand	81
cAMP-dependent protein kinase catalytic subunit beta (PRKACB, Homo sapiens, UniProt P22694)	cell-free assay	competition with immobilised ligand	100
Phosphatidylinositol 4-phosphate 5-kinase type-1 alpha (PIP5K1A, Homo sapiens, UniProt Q99755)	cell-free assay	competition with immobilised ligand	90
Phosphatidylinositol 4,5-bisphosphate 3-kinase catalytic subunit alpha isoform (PIK3CA, Homo sapiens, UniProt P42336, H1047L)	cell-free assay	competition with immobilised ligand	100
Calcium/calmodulin-dependent protein kinase type 1B (PNCK, Homo sapiens, UniProt Q6P2M8)	cell-free assay	competition with immobilised ligand	88
Tyrosine-protein kinase SYK (SYK, Homo sapiens, UniProt P43405)	cell-free assay	competition with immobilised ligand	73
Mitogen-activated protein kinase kinase kinase 5 (MAP3K5, Homo sapiens, UniProt Q99683)	cell-free assay	competition with immobilised ligand	99
Beta-adrenergic receptor kinase 1 (GRK2, Homo sapiens, UniProt P25098)	cell-free assay	competition with immobilised ligand	78
Tyrosine-protein kinase ABL1, phosphorylated (ABL1, Homo sapiens, UniProt P00519, F317I)	binding	–	100
Tyrosine-protein kinase receptor TYRO3 (TYRO3, Homo sapiens, UniProt Q06418)	cell-free assay	competition with immobilised ligand	100
Ankyrin repeat and protein kinase domain-containing protein 1 (ANKK1, Homo sapiens, UniProt Q8NFD2)	cell-free assay	competition with immobilised ligand	81
ALK tyrosine kinase receptor (ALK, Homo sapiens, UniProt Q9UM73)	cell-free assay	competition with immobilised ligand	85
Serine/threonine-protein kinase pim-1 (PIM1, Homo sapiens, UniProt P11309)	cell-free assay	competition with immobilised ligand	100
Phosphatidylinositol 4,5-bisphosphate 3-kinase catalytic subunit alpha isoform (PIK3CA, Homo sapiens, UniProt P42336, E545A)	cell-free assay	competition with immobilised ligand	75
Serine/threonine-protein kinase B-raf (BRAF, Homo sapiens, UniProt P15056, V600E)	cell-free assay	competition with immobilised ligand	89
Mitotic checkpoint serine/threonine-protein kinase BUB1 (BUB1, Homo sapiens, UniProt O43683)	cell-free assay	competition with immobilised ligand	75
Serine/threonine-protein kinase 24 (STK24, Homo sapiens, UniProt Q9Y6E0)	cell-free assay	competition with immobilised ligand	100
Receptor-type tyrosine-protein kinase FLT3 (FLT3, Homo sapiens, UniProt P36888, R834Q)	cell-free assay	competition with immobilised ligand	87
Serine/threonine-protein kinase PRP4 homolog (PRPF4B, Homo sapiens, UniProt Q13523)	cell-free assay	competition with immobilised ligand	86
Mitogen-activated protein kinase 4 (MAPK4, Homo sapiens, UniProt P31152)	cell-free assay	competition with immobilised ligand	88

Series 4 — organism: Sarcocystis neurona; observed: parasite growth; tested at: 10 µM; notes: secondary screen
Structure (SMILES)	inhibition [%]
CN1C(=O)CC[C@H]1c1cccnc1	-38.5
COc1c(N2C[C@@H]3CCCN[C@@H]3C2)c(F)cc2c(=O)c(C(=O)O)cn(C3CC3)c12	21.1
O=C(c1ccc(F)cc1)C1CCN(CCn2c(=S)[nH]c3ccccc3c2=O)CC1	66.7
Cc1[nH]c(=O)c(C#N)cc1-c1ccncc1	-36.6
COc1cc([C@@H]2c3cc4c(cc3[C@H](O)[C@H]3COC(=O)[C@H]23)OCO4)cc(OC)c1OC	1.1
COc1cc2c(cc1OC)C(=O)C(CC1CCN(Cc3ccccc3)CC1)C2 (stereo not shown)	-54.8
CC(C)C(=O)Nc1ccc([N+](=O)[O-])c(C(F)(F)F)c1	-38.6
Cc1c(O)cccc1C(=O)N[C@@H](CSc1ccccc1)[C@H](O)CN1C[C@H]2CCCC[C@H]2C[C@H]1C(=O)NC(C)(C)C	52.9
O=C1c2cccc3c2[C@H](CCC3)CN1[C@@H]1CN2CCC1CC2	-21.9

Series 5 — observed: binding; mode: competitor; technique: NanoBRET; cell line: HEK293
SMILES: CC(C)C(=O)N1CCN(c2nc(OC[C@@H]3CCCN3C)nc3c2CCN(c2cccc4cccc(Cl)c24)C3)C[C@@H]1CC#N
KRAS Q61R: GTPase KRas (KRAS, Homo sapiens, UniProt P01116, Q61R)
KRAS Q61L: GTPase KRas (KRAS, Homo sapiens, UniProt P01116, Q61L)
target	tested at	normalized BRET
KRAS Q61R	1.69 nM	103% and 92.2% and 102%
KRAS Q61R	11.1 µM	131% and 114% and 108%
KRAS Q61L	137 nM	99.2% and 91.5% and 97.6%
KRAS Q61L	3.7 µM	91.8% and 97% and 94.4%
KRAS Q61L	1.69 nM	98% and 103% and 100%

Some of these lines once more (series 4):
Structure (SMILES)	inhibition [%]
Cc1[nH]c(=O)c(C#N)cc1-c1ccncc1	-36.6
COc1cc([C@@H]2c3cc4c(cc3[C@H](O)[C@H]3COC(=O)[C@H]23)OCO4)cc(OC)c1OC	1.1
COc1cc2c(cc1OC)C(=O)C(CC1CCN(Cc3ccccc3)CC1)C2 (stereo not shown)	-54.8
CC(C)C(=O)Nc1ccc([N+](=O)[O-])c(C(F)(F)F)c1	-38.6
Cc1c(O)cccc1C(=O)N[C@@H](CSc1ccccc1)[C@H](O)CN1C[C@H]2CCCC[C@H]2C[C@H]1C(=O)NC(C)(C)C	52.9
